# Literature values, collected from citations in different studies.
# Each line is one published result; not all experiments were run side by side.
# Sequence of UniProt Q9UKE5 (whole entry, looked up): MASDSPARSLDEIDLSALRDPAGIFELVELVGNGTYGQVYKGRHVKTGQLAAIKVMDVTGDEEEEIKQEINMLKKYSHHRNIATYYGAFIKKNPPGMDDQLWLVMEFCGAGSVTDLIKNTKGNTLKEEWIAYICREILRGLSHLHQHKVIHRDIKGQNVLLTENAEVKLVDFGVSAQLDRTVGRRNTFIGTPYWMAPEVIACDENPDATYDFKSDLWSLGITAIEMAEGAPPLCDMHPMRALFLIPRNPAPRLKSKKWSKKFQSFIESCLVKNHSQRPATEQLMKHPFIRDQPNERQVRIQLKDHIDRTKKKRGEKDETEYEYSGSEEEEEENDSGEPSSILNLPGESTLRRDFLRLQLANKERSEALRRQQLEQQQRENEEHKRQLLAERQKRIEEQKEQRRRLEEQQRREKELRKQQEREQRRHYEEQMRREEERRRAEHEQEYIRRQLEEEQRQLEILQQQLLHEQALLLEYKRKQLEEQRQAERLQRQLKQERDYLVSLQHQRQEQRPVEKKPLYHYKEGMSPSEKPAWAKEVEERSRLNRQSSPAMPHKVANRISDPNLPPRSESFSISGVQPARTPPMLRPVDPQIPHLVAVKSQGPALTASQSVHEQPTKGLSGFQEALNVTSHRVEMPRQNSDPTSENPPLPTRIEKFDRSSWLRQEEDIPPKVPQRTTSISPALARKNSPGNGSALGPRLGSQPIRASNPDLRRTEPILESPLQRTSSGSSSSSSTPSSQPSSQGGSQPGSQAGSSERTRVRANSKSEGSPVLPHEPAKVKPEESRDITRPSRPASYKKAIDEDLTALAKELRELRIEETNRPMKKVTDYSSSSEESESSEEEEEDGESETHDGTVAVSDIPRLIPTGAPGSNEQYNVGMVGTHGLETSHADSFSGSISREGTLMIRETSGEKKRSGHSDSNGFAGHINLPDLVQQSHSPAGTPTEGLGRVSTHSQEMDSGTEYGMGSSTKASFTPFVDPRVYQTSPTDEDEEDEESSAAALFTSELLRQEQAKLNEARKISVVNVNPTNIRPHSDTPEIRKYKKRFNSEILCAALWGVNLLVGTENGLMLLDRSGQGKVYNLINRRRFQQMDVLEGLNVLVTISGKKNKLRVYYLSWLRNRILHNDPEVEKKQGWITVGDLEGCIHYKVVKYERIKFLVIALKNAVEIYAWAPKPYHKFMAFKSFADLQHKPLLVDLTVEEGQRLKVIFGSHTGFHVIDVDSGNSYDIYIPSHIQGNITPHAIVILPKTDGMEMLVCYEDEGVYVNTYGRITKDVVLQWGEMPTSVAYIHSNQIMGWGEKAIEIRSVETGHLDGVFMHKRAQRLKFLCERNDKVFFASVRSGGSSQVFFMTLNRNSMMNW
Structure (SMILES),tested on,test,system,conditions,scale,measurement,value
COc1ccccc1[C@H](Cn1c(=O)n(C(C)(C)C(=O)O)c(=O)c2c(C)c(-c3ncco3)sc21)OC1CCOCC1,,,rat,"0.18 mg/kg, hepatic fatty acid synthesis model",,AUC at ED50,19 ng·h/mL
CCN1CCN(Cc2ccc(Nc3ncc(F)c(-c4cc(F)c5nc(C)n(C(C)C)c5c4)n3)nc2)CC1,,,water,,,solubility,< 1000 µg/mL
C[C@@H](Oc1ccc(S(C)(=O)=O)cc1C(=O)N1C[C@@H]2C[C@]2(c2cc(C(F)(F)F)on2)C1)C(F)(F)F,,,"human, urine","dose not given, 336 h",relative to: dose,urinary excretion unchanged,~7.5%
FC(F)(F)c1ccc(CNc2ccc(Cc3c[nH]c4ncc(Cl)cc34)cn2)cn1,,,"patients, plasma","oral, 600 mg once daily, day 15, mean",,AUC(0-24 h),107000 ng·h/mL
Nc1cc(C(F)(F)F)c(-c2nc(N3CCOCC3)nc(N3CCOCC3)n2)cn1,"TNIK (Homo sapiens, UniProt Q9UKE5)",enzyme activity,,10 µM,relative to: untreated,remaining activity,75%
COc1ccc2nc([S@@+]([O-])Cc3ncc(C)c(OC)c3C)[nH]c2c1,,,supercritical CO2,,,crossover pressure,200 to 220 bar
C[C@@H](Oc1cc(-c2cnn(C3CCNCC3)c2)cnc1N)c1c(Cl)ccc(F)c1Cl,,measured: diarrhea,treatment-naive ALK-positive NSCLC patients,"dose not given, monotherapy trial",,adverse event incidence,61%
CNCc1cc(-c2ccccc2F)n(S(=O)(=O)c2cccnc2)c1,,,"human, plasma","10 mg single dose, observed clinical data",,Tmax,1.5 h
C=C[C@@H]1C[C@]1(NC(=O)[C@@H]1C[C@@H]2CN1C(=O)[C@H](C(C)(C)C)NC(=O)O[C@@H]1C[C@H]1CCCCCc1nc3ccc(OC)cc3nc1O2)C(=O)NS(=O)(=O)C1CC1,,,bile duct-cannulated rats,"oral, dose not given",,unchanged drug excreted in faeces,73%
Cc1ccc2[nH]c(C)c(Br)c(=O)c2c1,Plasmodium falciparum,whole cell extended time,3D7,72 h,,IC50,810 nM
CC(C)[C@H](N)C(=O)OCC(CO)OCn1cnc2c(=O)[nH]c(N)nc21 (some centres unmarked),,,human,900 mg,,oral bioavailability,32%
CNC(C)C1CCC(N)C(OC2C(N)CC(N)C(OC3OCC(C)(O)C(NC)C3O)C2O)O1 (centres unmarked),Klebsiella pneumoniae,,clinical isolate RKI-No_229/15,,,MIC,> 8 µg/mL
CC1=C(CC(=O)O)c2cc(F)ccc2/C1=C\c1ccc([S+](C)[O-])cc1 (centres unmarked),,,plasma,"concentration not given, total, steady state",,Cmax,29800 nM
O=C(O)CCCCCCCCCCCCCCC(=O)O,,,monkey,"dose not given, together with: probenecid",relative to: with over without probenecid,Cmax fold increase,2 fold
Cc1nc(NC(=O)N2CCC[C@H]2C(N)=O)sc1-c1ccnc(C(C)(C)C(F)(F)F)c1,,,human,"oral, 300 mg single dose, together with: high-fat high-calorie meal",relative to: fasted,increase in Cmax,84%
C[C@H]1CN(C2COC2)CCN1c1ccc(Nc2cc(-c3ccnc(N4CCn5c(cc6c5CC(C)(C)C6)C4=O)c3CO)cn(C)c2=O)nc1,,,human,200 mg once daily,,AUC(0-last),2050 ng·h/mL
Nc1cccc2c1C(=O)N(C1CCC(=O)NC1=O)C2=O (centres unmarked),,,relapsed refractory multiple myeloma patients,"dose not given, grade up to 4",,incidence of grade 3 neutropenia,47%
CC(C)Cc1ccc(C(C)C(=O)O)cc1 (centres unmarked),,,plasma,,,free Cmax,921 nM
CC1(C)S[C@@H]2[C@H](NC(=O)[C@H](N)c3ccccc3)C(=O)N2[C@H]1C(=O)O,Pseudomonas aeruginosa,,clinical isolate RKI-No_81/10,,,MIC,> 16 µg/mL
Cc1[nH]c(C)c(-c2ccc(Oc3ccc(Cl)cc3)cc2)c(=O)c1Br,Plasmodium falciparum,whole cell extended time,3D7,72 h,,IC50,590 nM
COc1ccc(CCN2CCC(Nc3nc4ccccc4n3Cc3ccc(F)cc3)CC2)cc1,,,human,,,free Cmax,0.204 nM
COc1ccccc1OCCNCC(O)COc1cccc2[nH]c3ccccc3c12 (centres unmarked),,,plasma,"concentration not given, total, steady state",,Cmax,260 nM
Nc1ccn([C@@H]2CS[C@H](CO)O2)c(=O)n1,,,human,,,oral bioavailability,86%
COc1cc2c(Nc3ccc(Br)cc3F)ncnc2cc1OCC1CCN(C)CC1,,,human,,,free Cmax,267 nM
CC(C)(CO)c1cc2cc(NC(=O)C3(c4ccc5c(c4)OC(F)(F)O5)CC3)c(F)cc2n1C[C@@H](O)CO,,,human,,,fraction absorbed,0.82
O=C(CCCCCCC(=O)Nc1ccccc1)NO,,,BALB/c nude mice,"oral, 50 mg/kg single",,AUC(0-inf),2.3 µM·h
C[Si]1(C)O[Si](C)(C)O[Si](C)(C)O[Si](C)(C)O[Si](C)(C)O[Si](C)(C)O1,,,octanol/air,,,slope B of log KOA vs 1/T,3000 K
C[C@H]1COCCN1c1nc(-c2cnc(N)cc2C(F)F)nc(N2CCOCC2)n1,MCF7,,,,,GI50,97 nM
COc1cc2ncnc(Nc3ccc(F)c(Cl)c3)c2cc1OCCCN1CCOCC1,,,FaSSIF,literature value,,solubility,88.7 µg/mL
CC(C)(C)NCC(O)c1cc(O)cc(O)c1 (centres unmarked),,,"human, plasma","inhaled, dose not given",,Clast,4.4 nM
Cc1cc(-c2nccc3c2ccn3CC(=O)Nc2ccc(-c3cnccn3)cn2)ccn1,,,rat,"oral, up to 200 mg/kg",,respiratory function,no effect
CCN(CC)CCNC(=O)c1c(C)[nH]c(/C=C2\C(=O)Nc3ccc(F)cc32)c1C,,,water,,,solubility,< 1000 µg/mL
CN(C)C(=O)c1cc2cnc(Nc3ccc(N4CCNCC4)cn3)nc2n1C1CCCC1,,measured: neutropenia,advanced solid tumour or lymphoma patients,"dose not given, continuous dosing",relative to: patients,adverse event incidence,42.1%
COc1cc2nccc(Oc3ccc(NC(=O)C4(C(=O)Nc5ccc(F)cc5)CC4)cc3)c2cc1OC,,,healthy human volunteers,"single dose, CYP3A4 inducer, together with: rifampin 600 mg daily 31 days",,exposure decrease,77%
CN1CCN(CCCCN2C(=O)CN(/N=C/c3ccc(-c4ccc(Cl)cc4)o3)C2=O)CC1,,,human,,,free Cmax,70 nM
CN(C)C(=N)N=C(N)N,,,healthy human,,,CLint passive liver,0.012 mL/min
CN(C/C=C/C#CC(C)(C)C)Cc1cccc2ccccc12,,,water,,,solubility,< 1000 µg/mL
CC[C@H](C)CCCCC(=O)N[C@@H](CCN)C(=O)N[C@H](C(=O)N[C@@H](CCN)C(=O)N[C@H]1CCNC(=O)[C@H]([C@@H](C)O)NC(=O)[C@H](CCN)NC(=O)[C@H](CCN)NC(=O)[C@H](CC(C)C)NC(=O)[C@@H](Cc2ccccc2)NC(=O)[C@H](CCN)NC1=O)[C@@H](C)O,,,"rat, urine","dose not given, 48 h",,unchanged urinary excretion,< 1%
Cc1cn([C@H]2C=C[C@@H](CO)O2)c(=O)[nH]c1=O,,,monkey,15 mg/kg,,oral bioavailability,80 to 86%
C#C[C@]1(O)CC[C@H]2[C@@H]3CCC4=CC(=NO)CC[C@@H]4[C@H]3CC[C@@]21CC (mixture of isomers),,,"human, fed","0.215 mg norgestimate, after 7 days dosing",,"Cmax, geometric mean",1.96 ng/mL
Nc1nc(=O)n([C@@H]2CS[C@H](CO)O2)cc1F,,,monkey,10 mg/kg,,bioavailability,63%
CCC(=O)NCC[C@@H]1CCc2ccc3c(c21)CCO3,,,water,,,solubility,< 1000 µg/mL
CCN1CCN(Cc2ccc(Nc3ncc(F)c(-c4cc(F)c5nc(C)n(C(C)C)c5c4)n3)nc2)CC1,,,human,"100 mg twice daily, tablet, multiple dose",,AUC(0-last),2190 ng·h/mL
C[C@@H](O[C@H]1OCCN(Cc2n[nH]c(=O)[nH]2)[C@H]1c1ccc(F)cc1)c1cc(C(F)(F)F)cc(C(F)(F)F)c1,,,supercritical CO2,,,crossover pressure,150 to 180 bar
COc1cc(N2CCC(N3CCN(C)CC3)CC2)ccc1Nc1ncc(Cl)c(Nc2ccccc2P(C)(C)=O)n1,,,"human, feces","oral, 180 mg",relative to: radioactivity,unchanged compound excreted,41%
CC[C@@H]([C@H](C)O)n1ncn(-c2ccc(N3CCN(c4ccc(OC[C@@H]5CO[C@@](Cn6cncn6)(c6ccc(F)cc6F)C5)cc4)CC3)cc2)c1=O,,,plasma,prophylaxis,,minimum effective plasma level,0.7 µg/mL
N#CCNC(=O)c1ccc(-c2ccnc(Nc3ccc(N4CCOCC4)cc3)n2)cc1,,,patients with myelofibrosis,"dose not given, integrated long-term safety, phase III trials",,incidence of grade ≥3 peripheral neuropathy,1.2%
COCCc1ccc(OCC(O)CNC(C)C)cc1 (centres unmarked),,,human fasted,"200 mg multiple doses, day 7, mean",,AUC(0-24 h),1560 ng·h/mL
CO[C@H]1O[C@H](COS(=O)(=O)O)[C@@H](O[C@@H]2O[C@@H](C(=O)O)[C@@H](O[C@H]3O[C@H](COS(=O)(=O)O)[C@@H](O[C@@H]4O[C@H](C(=O)O)[C@@H](O[C@H]5O[C@H](COS(=O)(=O)O)[C@@H](O)[C@H](O)[C@H]5NS(=O)(=O)O)[C@H](O)[C@H]4O)[C@H](OS(=O)(=O)O)[C@H]3NS(=O)(=O)O)[C@H](O)[C@H]2OS(=O)(=O)O)[C@H](O)[C@H]1NS(=O)(=O)O,,,human,"concentration not given, clinical",,diarrhoea incidence,< 3%
O=C(c1ccccc1)c1ccc2n1CCC2C(=O)O (centres unmarked),,,plasma,concentration not given,,unbound Cmax,100 nM
O=C1Nc2ccc(Cl)cc2[C@@](C#CC2CC2)(C(F)(F)F)O1,,,water,,,solubility,< 1000 µg/mL
CC(=O)O[C@H]1C(=O)[C@@]2(C)[C@H]([C@H](OC(=O)c3ccccc3)[C@]3(O)C[C@H](OC(=O)[C@H](O)[C@@H](NC(=O)c4ccccc4)c4ccccc4)C(C)=C1C3(C)C)[C@]1(OC(C)=O)CO[C@@H]1C[C@@H]2O,,,pretreated metastatic breast cancer patients,"80 mg/m2 weekly, monotherapy",,grade 3 peripheral neuropathy incidence,8%
Cn1c(Cn2ccc(C(F)(F)F)c(Oc3cc(Cl)cc(C#N)c3)c2=O)n[nH]c1=O,,,human subjects,up to 48 weeks,,Fatigue incidence,8.1%

# Repeated from above:
Structure (SMILES),tested on,test,system,conditions,scale,measurement,value
CN(C)C(=N)N=C(N)N,,,healthy human,,,CLint passive liver,0.012 mL/min
CN(C/C=C/C#CC(C)(C)C)Cc1cccc2ccccc12,,,water,,,solubility,< 1000 µg/mL
CC[C@H](C)CCCCC(=O)N[C@@H](CCN)C(=O)N[C@H](C(=O)N[C@@H](CCN)C(=O)N[C@H]1CCNC(=O)[C@H]([C@@H](C)O)NC(=O)[C@H](CCN)NC(=O)[C@H](CCN)NC(=O)[C@H](CC(C)C)NC(=O)[C@@H](Cc2ccccc2)NC(=O)[C@H](CCN)NC1=O)[C@@H](C)O,,,"rat, urine","dose not given, 48 h",,unchanged urinary excretion,< 1%
Cc1cn([C@H]2C=C[C@@H](CO)O2)c(=O)[nH]c1=O,,,monkey,15 mg/kg,,oral bioavailability,80 to 86%
C#C[C@]1(O)CC[C@H]2[C@@H]3CCC4=CC(=NO)CC[C@@H]4[C@H]3CC[C@@]21CC (mixture of isomers),,,"human, fed","0.215 mg norgestimate, after 7 days dosing",,"Cmax, geometric mean",1.96 ng/mL
